Measurements collected from several papers.
Each numbered part is a random draw from the data of one study; scales do not carry over between parts. Positions count from the first letter of the parent shown.

Sample 1 — method: RNAcompete; molecule type: RNA; matrix: in vitro; concentration: 20 nM; notes: 7-mer, probes averaged, single round; baseline: mean of 7-mers; direction: higher = stronger binding
Target: PABPC1L2, full length, GST fusion (mouse, UniProt A0ABA7IW68)
Construct (chain): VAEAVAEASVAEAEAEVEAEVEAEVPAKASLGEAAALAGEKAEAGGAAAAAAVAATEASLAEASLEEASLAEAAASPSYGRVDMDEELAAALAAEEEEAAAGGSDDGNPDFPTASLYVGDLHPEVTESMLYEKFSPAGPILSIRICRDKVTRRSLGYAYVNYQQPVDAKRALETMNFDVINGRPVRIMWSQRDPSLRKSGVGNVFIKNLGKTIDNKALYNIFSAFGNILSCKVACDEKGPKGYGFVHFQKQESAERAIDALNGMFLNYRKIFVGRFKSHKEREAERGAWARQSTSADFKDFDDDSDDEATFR
| Sequence | 7-mer Z-score |
| --- | --- |
| AUUUCCG | -0.324 |
| GGGCAGG | 0.494 |
| UGUAUGC | -0.235 |
| GCUCCAG | -0.262 |
| GUCGUAA | -0.228 |
| GAAGUUA | -0.0627 |
| CUAAAUA | 1 |
| CCGUCUG | -0.271 |

Sample 2 — method: protein-binding microarray; molecule type: double-stranded DNA, one strand shown; matrix: in vitro; concentration: 250 nM; notes: 60-bp whole probe; with: salmon DNA 0.4 mg/ml; baseline: random background probes; direction: higher = stronger binding; shared flanks, not repeated: GCCTAGCAC … GTCTTGATTCGCTTGACGCTGCTG
Target: Interferon regulatory factor 5, full length, phosphomimetic (IRF5, Homo sapiens, UniProt Q13568-2, residues 1-514, K96S/S451D/S453D/S456D/S462D)
| Sequence | log fluorescence [z-score] |
| --- | --- |
| GACCGTCTCGGTATCGGGACGTGCTAG | 0.98 |
| TTAGGTATCGCTATCGGTTAGTGCTAG | 8.26 |
| TTAGATTTCATTTTCGATTAGTGCTAG | 8.75 |
| TTAGGTTTCGGTTCAGGTTAGTGCTAG | 10.7 |
| TTAGGACCGCTTATCCTTTAGTGCTAG | -0.197 |
| GACGGTATGCTTATCCTGACGTGCTAG | -0.412 |
| TTAGATGTCGGGACTGGATTAGTGCTA | -0.361 |
| TCACCTTCCTCTTTTACACTGTGCTAG | 0.609 |

Sample 3 — target: OGT, full length, His-tagged (human); method: phage display, sequencing; matrix: in vitro; concentration: 1 µg OGT; baseline: input library; direction: higher = stronger binding; parent: peptide; NSEYMPQYQIIFAHQ
Notes: single substitutions, 15-mer displayed peptide, unchanged parent 16.7
| Change | fold enrichment |
| --- | --- |
| NSEYMPQYNIIFAHQ [Q9N] | 1.57 fold |
| NSEYMPQYLIIFAHQ [Q9L] | 6.99 fold |
| NSEYMPQYQDIFAHQ [I10D] | 0.526 fold |
| NSEYMPQYQIIFAPQ [H14P] | 17.3 fold |
| ISEYMPQYQIIFAHQ [N1I] | 24.9 fold |
| NSEYMPTYQIIFAHQ [Q7T] | 2.13 fold |
| LSEYMPQYQIIFAHQ [N1L] | 10.9 fold |
| NEEYMPQYQIIFAHQ [S2E] | 17.1 fold |

Further values, each from its own experiment
Parent: PafA, mature enzyme, eGFP fusion (Elizabethkingia meningoseptica, UniProt Q9KJX5); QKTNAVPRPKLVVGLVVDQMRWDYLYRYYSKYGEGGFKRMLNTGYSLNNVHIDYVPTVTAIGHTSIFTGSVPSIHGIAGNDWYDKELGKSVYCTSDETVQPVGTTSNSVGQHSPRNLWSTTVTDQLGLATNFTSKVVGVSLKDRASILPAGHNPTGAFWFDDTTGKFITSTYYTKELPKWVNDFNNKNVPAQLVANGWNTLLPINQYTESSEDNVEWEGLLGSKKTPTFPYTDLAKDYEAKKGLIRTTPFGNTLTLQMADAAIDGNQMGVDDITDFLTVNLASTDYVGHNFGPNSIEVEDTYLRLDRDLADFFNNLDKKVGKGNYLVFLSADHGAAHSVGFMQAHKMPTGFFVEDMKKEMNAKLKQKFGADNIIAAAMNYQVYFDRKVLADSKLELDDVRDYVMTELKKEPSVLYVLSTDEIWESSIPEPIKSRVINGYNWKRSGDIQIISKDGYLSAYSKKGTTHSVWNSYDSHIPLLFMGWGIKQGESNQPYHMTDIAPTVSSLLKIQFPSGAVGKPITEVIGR
| Change | target | test | system | conditions | how to read | measurement | result |
| --- | --- | --- | --- | --- | --- | --- | --- |
| N48G | vanadate, free oxyanion | microfluidic competitive inhibition | in vitro, cell-free expressed | not given, derived from inhibition constants, unchanged parent 676 nM | lower = stronger binding | oxyanion analog dissociation constant | 749 nM |
